Experimental data from different studies.
Numbered parts are unrelated; each lists some results of a single study. Changes are numbered by the printed parent chain.

Set 1
Target: Prothrombin, mature alpha-thrombin (F2, Homo sapiens, UniProt P00734)
Technique: aptamer microarray, sandwich
Form: DNA with 2'F-ANA
Matrix: in vitro
Concentration: 200 nM
Setting: whole 15-mer aptamer, many near background
With: Cy3 exosite-II aptamer, 400 nM
Direction: higher = stronger binding
Oligonucleotide: GGTTGGTGTGGTTGG
`2'F-ANA at 2 3 5 10 12 13 15` — result for “mean fluorescence intensity”: 54.5 a.u.
`2'F-ANA at 1 3 4 6 9 10 11 12 14 15`: “mean fluorescence intensity” 56.1 a.u.
`2'F-ANA at 3 6 8 9 10 11 14` — result for “mean fluorescence intensity”: 375 a.u.
Under “mean fluorescence intensity”, `2'F-ANA at 1 4 6 7 10 11 12` is recorded as 58 a.u.
For `2'F-ANA at 3 5 6 7 8 10 13`, “mean fluorescence intensity” read 52.1 a.u.
`2'F-ANA at 3 4 5 6 10 15`: “mean fluorescence intensity” 53.3 a.u.
Under “mean fluorescence intensity”, `2'F-ANA at 1 2 4 6 7 8 9 10 12` is recorded as 87.9 a.u.
`2'F-ANA at 4 7 10 11 15` — result for “mean fluorescence intensity”: 85.5 a.u.
For `2'F-ANA at 2 4 6 7 9 13 14 15`, “mean fluorescence intensity” read 73.2 a.u.
`2'F-ANA at 1 6 7 9 11 12 14` — result for “mean fluorescence intensity”: 56.5 a.u.
`2'F-ANA at 1 2 3 5 12`: “mean fluorescence intensity” 128 a.u.
For `2'F-ANA at 3 4 5 6 15`, “mean fluorescence intensity” read 113 a.u.
`2'F-ANA at 1 2 4 5 6 12 13 14 15` — result for “mean fluorescence intensity”: 50 a.u.
`2'F-ANA at 4 7 10 13 15` — result for “mean fluorescence intensity”: 100 a.u.
Under “mean fluorescence intensity”, `2'F-ANA at 1 2 7 8 9 11 13 14` is recorded as 49.5 a.u.
`2'F-ANA at 1 4 5 6 7 10 12 13 15` — result for “mean fluorescence intensity”: 48.1 a.u.
`2'F-ANA at 1 2 3 4 5 6 7 8 9 11 15`: “mean fluorescence intensity” 78.6 a.u.
`2'F-ANA at 1 2 5 7 8 11 12 13 14 15` — result for “mean fluorescence intensity”: 93.6 a.u.
`2'F-ANA at 6 10 11 12 13` — result for “mean fluorescence intensity”: 176 a.u.
For `2'F-ANA at 2 3 4 5 6 7 8 13`, “mean fluorescence intensity” read 69 a.u.
For `2'F-ANA at 4 6 7 8 10 11 13`, “mean fluorescence intensity” read 64.2 a.u.
Under “mean fluorescence intensity”, `2'F-ANA at 2 4 7 9 10 13 14` is recorded as 69.4 a.u.

Set 2
Target: RNA binding protein fox-1 homolog 2, RRM domain, GST-SBP tag (RBFOX2, Homo sapiens, UniProt O43251-10, residues 100-194)
Technique: RNA Bind-n-Seq
Form: RNA
Matrix: in vitro
Concentration: 365 nM
Setting: natural RNA segment, single round, ends assumed
Reference: no-protein control
Direction: higher = stronger binding
Target sequence (chain): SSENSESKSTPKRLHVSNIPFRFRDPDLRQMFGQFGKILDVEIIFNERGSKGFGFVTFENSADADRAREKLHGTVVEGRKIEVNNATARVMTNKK
`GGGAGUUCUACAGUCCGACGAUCCCCUUUGCUGACCCUCCCCAAAGGCUUUGCCCUGCUGCCCUCCCCCUCCUCUCCACCAUCGUCUUCUUGGCCAUGGGAGGCCUUUCCCUAAGCCAGCUGCCCCCAGAGCCUGGAAUUCUCGGGUGCCAA`: “RBNS enrichment (R)” 0.765.
Under “RBNS enrichment (R)”, `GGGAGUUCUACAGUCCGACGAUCGCUUUAGAGUUUUCUGAAUUCCUGCGCCUUCCUGACGUGAGCCCUGAGCGAUCUUCUAUGCAGUUCUGCCAUGCGUCCUGUUGGUCUCUCUGUGUUCUUUGUUACUUGGGUGGAAUUCUCGGGUGCCAA` is recorded as 0.431.
Under “RBNS enrichment (R)”, `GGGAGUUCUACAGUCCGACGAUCCAUUGAAGCUCUCUGAGUUCUUUGAUUUUAAGUUGGGUUUAUGGAAUUUUUUCAAAUGUUGGAAGGUGUGUGGUUCUUCCUGCCCUCCCUCCCCUUUUGGAAAUAUGAAAUGGAAUUCUCGGGUGCCAA` is recorded as 0.464.
Under “RBNS enrichment (R)”, `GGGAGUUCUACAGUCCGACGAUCCUUCUGGCUGGCUUCUCUCUGCCAGGGGCUCAGAAGGGGCACAAAAGGGGGUCAAGAAAAGAGCAACAAAGCAAAAUUGUUCUUCCUCUUCCCUUCCCUGAUGCCAGGGGUGGAAUUCUCGGGUGCCAA` is recorded as 0.337.
Under “RBNS enrichment (R)”, `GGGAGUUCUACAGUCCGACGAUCUAAUUGGUUUAAAAACACAGUAAAUUUACUGGCUUAUAAAGCUGAAAAAGCCUAGGAGUACUGGCAGUGGAUGAACAAUUUCACCAAACAUCCAGCUUUUUUCCUGCCUCUGGAAUUCUCGGGUGCCAA` is recorded as 0.298.
`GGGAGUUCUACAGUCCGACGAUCUGAAGAGUUUUAGGAAUAAAUACAUUUUAUAGAAUGGAAACCCAGUAUGGUACUGGGGAAGUUUAUUCAUGCUUGCAAUCUUGUUUGGAAAUAAAAUGGGUCCGUCUGGAUGGAAUUCUCGGGUGCCAA` — result for “RBNS enrichment (R)”: 2.26.
`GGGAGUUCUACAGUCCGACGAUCUCUUCCCCAAACUAGCUCAUUAAAGAUGAAAUAGACCAGCUCUCUUCAGUGAAGAGGACAAAUAGUUUAUUUAAAGCAUUUGUUCCAAUAAAAUAACUAGAGGGAAACUUUGGAAUUCUCGGGUGCCAA`: “RBNS enrichment (R)” 0.444.
`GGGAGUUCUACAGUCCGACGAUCAUCUUAACUCCACGCUUUACGAUAUUAUAAAAGUUGAAUGGUUCCUCUUGGUAAGGAUAUUUGCUUACAAGUGCUAGGAAAUAACUCACUGAUACCUGCGUUAACAUACUUGGAAUUCUCGGGUGCCAA`: “RBNS enrichment (R)” 1.07.

Set 3
Target: Histone acetyltransferase KAT6A, winged helix 2, GST fusion (KAT6A, Homo sapiens, UniProt Q92794, residues 85-181)
Technique: protein binding microarray
Form: double-stranded DNA, one strand shown
Matrix: in vitro
Concentration: not given
Setting: 8-mer, flanks averaged, mean of 2 arrays, mostly near background
Reference: not given
Direction: higher = stronger binding
Residues (chain): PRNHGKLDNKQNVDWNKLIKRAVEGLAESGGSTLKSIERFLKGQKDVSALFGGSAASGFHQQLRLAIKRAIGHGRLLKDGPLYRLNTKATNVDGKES
With `GCATGTGA` the E-score was -0.021.
With `CGAGAGCG` the E-score was 0.018.
`CTGTGATA` gave an E-score of -0.0284.
The E-score of `ATGCCATA` is reported as -0.147.
For `AGCTGTGC`, the E-score was 0.157.
`CTCCACAG` gave an E-score of -0.0266.
`ATAAAAGC` has an E-score of -0.00546.
The E-score of `ATCAGGGA` is reported as -0.211.
The E-score of `ATTTTCTG` is reported as 0.00988.
The E-score of `GGTCTGCA` is reported as 0.0911.
The E-score of `GACTTCTA` is reported as -0.18.
`ATAGTCCC` gave an E-score of -0.0303.
`CATTCTGG` gave an E-score of -0.0751.
With `ACCCACGC` the E-score was 0.0467.
For `CACCGAAA`, the E-score was 0.0423.
`TAGGATAA` has an E-score of -0.0959.
With `CCACGTGG` the E-score was -0.168.
For `CTGAACAC`, the E-score was 0.0442.

Set 4
Target: CCNA1, cyclin fold, Cln2 fusion (human)
Technique: yeast growth competition, sequencing
Matrix: yeast
Setting: weak parent motif
Reference: not given
Direction: higher = stronger binding
Starting sequence: CDC25A docking peptide (human); PPHRRRLLFACSP
For `PPHFRRLLFACSP [R4F]`, “normalised enrichment score” read 0.388.
Under “normalised enrichment score”, `PPHRRRPLFACSP [L7P]` is recorded as 0.0756.
`PPRRRRLLFACSP [H3R]`: “normalised enrichment score” 0.457.
Under “normalised enrichment score”, `PPHRAAAAFACSP [R5A R6A L7A L8A]` is recorded as 0.142.
`PPHRRTLLFACSP [R6T]` — result for “normalised enrichment score”: 0.335.
`PPHRRRLLAACSP [F9A]`: “normalised enrichment score” 0.468.
`PPMRRRLLFACSP [H3M]`: “normalised enrichment score” 0.202.
`PPHRRLLLFACSP [R6L]` — result for “normalised enrichment score”: 0.156.
`PPHRSRLLFACSP [R5S]`: “normalised enrichment score” 0.0434.
`PPHRRRLLFACLP [S12L]` — result for “normalised enrichment score”: 0.235.
`PPHARRLLFACSP [R4A]` — result for “normalised enrichment score”: 0.196.
`PPHRRRLLFAMSP [C11M]` — result for “normalised enrichment score”: 0.00455.
For `PPHYRRLLFACSP [R4Y]`, “normalised enrichment score” read 0.333.
`QPHRRRLLFACSP [P1Q]` — result for “normalised enrichment score”: 0.329.
For `PPHRRYLLFACSP [R6Y]`, “normalised enrichment score” read -0.106.
`TPHRRRLLFACSP [P1T]` — result for “normalised enrichment score”: 0.237.
For `PEHRRRLLFACSP [P2E]`, “normalised enrichment score” read 0.301.
`PPHRRRLLFACSY [P13Y]` — result for “normalised enrichment score”: 0.181.
Under “normalised enrichment score”, `PPHRRRLLFAISP [C11I]` is recorded as 0.308.
`PPHRRRMLFACSP [L7M]` — result for “normalised enrichment score”: 0.166.
For `PPHRRRILFACSP [L7I]`, “normalised enrichment score” read 0.604.
`PPHRRRLWFACSP [L8W]`: “normalised enrichment score” 0.203.
Under “normalised enrichment score”, `PPHRRRLLFARSP [C11R]` is recorded as -0.184.
Under “normalised enrichment score”, `PPHRRRNLFACSP [L7N]` is recorded as 0.206.
`PMHRRRLLFACSP [P2M]`: “normalised enrichment score” 0.488.

Excerpt of the above (set 1):
`2'F-ANA at 1 2 3 5 12`: “mean fluorescence intensity” 128 a.u.
For `2'F-ANA at 3 4 5 6 15`, “mean fluorescence intensity” read 113 a.u.
`2'F-ANA at 1 2 4 5 6 12 13 14 15` — result for “mean fluorescence intensity”: 50 a.u.
`2'F-ANA at 4 7 10 13 15` — result for “mean fluorescence intensity”: 100 a.u.
Under “mean fluorescence intensity”, `2'F-ANA at 1 2 7 8 9 11 13 14` is recorded as 49.5 a.u.
